Results collected from several papers.
Each line is one published result; not all experiments were run side by side. ± marks the error that the study gave. Ends that are not written are not given here.
B1: UGT1A9 (Homo sapiens, UniProt O60656); chain GKLLVVPMDGSHWFTMRSVVEKLILRGHEVVVVMPEVSWQLGRSLNCTVKTYSTSYTLEDLDREFKAFAHAQWKAQVRSIYSLLMGSYNDIFDLFFSNCRSLFKDKKLVEYLKESSFDAVFLDPFDNCGLIVAKYFSLPSVVFARGILCHYLEEGAQCPAPLSYVPRILLGFSDAMTFKERVRNHIMHLEEHLLCHRFFKNALEIASEILQTPVTEYDLYSHTSIWLLRTDFVLDYPKPVMPNMIFIGGINCHQGKPLPMEFEAYINASGEHGIVVFSLGSMVSEIPEKKAMAIADALGKIPQTVLWRYTGTRPSNLANNTILVKWLPQNDLLGHPMTRAFITHAGSHGVYESICNGVPMVMMPLFGDQMDNAKRMETKGAGVTLNVLEMTSEDLENALKAVINDKSYKENIMRLSSLHKDRPVEPLDLAVFWVEFVMRHKGAPHLRPAAHDLTWYQYHSLDVIGFLLAVVLTVAFITFKCCAYGYRKCLGKKGRVKKAHKSKTH

| Molecule | target or system | test | test system | setting | scale | measurement | result |
| --- | --- | --- | --- | --- | --- | --- | --- |
| N=C(N)NCCC[C@@H]1NC(=O)[C@H](CCCCNC(=O)CCOCCOCCOCCOCCNC(=O)CC[C@H](NC(=O)CCOCCOCCOCCOCCNC(=O)c2ccc(NN)nc2)C(=O)NCCOCCOCCOCCOCCC(=O)NCCCC[C@@H]2NC(=O)[C@@H](Cc3ccccc3)NC(=O)[C@H](CC(=O)O)NC(=O)CNC(=O)[C@H](CCCNC(=N)N)NC2=O)NC(=O)[C@@H](Cc2ccccc2)NC(=O)[C@H](CC(=O)O)NC(=O)CNC1=O [technetium-99m labelled] | – | – | athymic nude mice, female, U-87 MG glioma xenograft, tumour | intravenous, 0.1 MBq, range over 5 and 60 min | – | tissue uptake | 7.24 to 8.72 %ID/g |
| COc1cccc2c1C(=O)c1c(O)c3c(c(O)c1C2=O)C[C@@](O)(C(=O)CO)C[C@@H]3O[C@H]1C[C@H](NC(=O)[C@@H]2CCCN2C(=O)CNC(=O)[C@@H](N)CC(C)C)[C@H](O)[C@H](C)O1 | – | – | mouse, E0771 tumour-bearing, plasma | intravenous, 92 µmol/kg PhAc-ALGP-Dox | – | Cmax | 740 nM |
| insulin degludec | – | ELISA | human, end-stage renal disease, serum | subcutaneous, 0.4 U/kg single dose, dosed after hemodialysis, geometric mean, non-dialysis profile | – | Cmax | 3.17 nM |
| CSCC[C@H](NC(=O)[C@H](CC(C)C)NC(=O)[C@H](Cc1c[nH]cn1)NC(=O)CNC(=O)[C@@H](NC(=O)[C@H](C)NC(=O)[C@H](Cc1c[nH]c2ccccc12)NC(=O)[C@H](CCC(N)=O)NC(=O)CCCCCNC(=O)[C@H](CCC(=O)NCCCC[C@@H]1NC(=O)[C@@H](Cc2ccc(O)cc2)NC(=O)[C@H](CC(=O)O)NC(=O)CNC(=O)[C@H](CCCNC(=N)N)NC1=O)NC(=O)CN1CCN(CC(=O)O)CCN(CC(=O)O)CC1)C(C)C)C(N)=O [copper-64 labelled] | – | – | ICR SCID mouse, female, stomach | intravenous, 750 kBq, 24 h | – | tissue uptake | 0.34 ± 0.12 %ID/g |
| CC1=C(I)C(C)=[N+]2C1=C(c1ccc(OCCn3cc(CNC(=O)CSC[C@H](NC(=O)c4ccc(-c5nnc(C)c6c5CCC(O)CCC6)cc4)C(=O)N[C@@H](CC4CCCCC4)C(=O)N[C@H](CCCNC(=N)N)C(=O)N[C@@H](CC4CCCCC4)C(=O)N[C@H](CCCNC(=N)N)C(=O)N[C@@H](CC4CCCCC4)C(=O)N[C@H](CCCNC(=N)N)C(N)=O)nn3)cc1)c1c(C)c(I)c(C)n1[B-]2(F)F (stereo partly drawn) | – | – | – | 1 µM, added: DPBF, 525 nm light | relative to: rose bengal, erythrosine B | singlet oxygen quantum yield | 0.59 |
| KCNTATCATQRLANFLVHSSNNFGPILPPTNVGSNTY (Pramlintide; not fully specified (C-terminus, bridges); cysteine pairing not given here; sequence looked up) | – | measured: Hypersensitivity | peptide, obese or overweight humans | concentration not given, ITT population | – | adverse event incidence | 0% |
| CC(C)[C@H](NC(=O)[C@@H]1CCCN1C(=O)[C@H](CCCNC(=N)N)NC(=O)[C@H](CS)NC(=O)[C@H](Cc1c[nH]c2ccccc12)NC(=O)[C@H](CCCNC(=N)N)NC(=O)[C@@H](Cc1ccccc1)NC(=O)[C@H](Cc1c[nH]cn1)NC(=O)[C@H](CCC(=O)O)NC(=O)[C@H](CS)NC(=O)[C@H](CS)NC(=O)[C@H](CCCCN)NC(=O)[C@@H]1CC(=O)N[C@@H](CCCNC(=N)N)C(=O)N[C@@H](C)C(=O)N[C@@H](CC(=O)O)C(=O)N[C@H](Cc2ccc(O)cc2)C(=O)N1)C(N)=O [technetium-99m labelled] | – | – | C57 mice, bone | intravenous, 0.037 MBq, 2 h | – | tissue uptake | 0.37 ± 0.21 %ID/g |
| insulin aspart | – | – | healthy subjects, plasma | subcutaneous, 0.2 U/kg | – | AUC(0-inf) | 8.14 ng·h/mL |
| B1 (UGT1A9) | COc1ccc(-c2coc3cc(O)ccc3c2=O)cc1 | steady-state kinetics | – | pH 7.4, 37 °C | – | Vmax | 0.000139 µmol/min/mg |

Repeated from above:
| Molecule | target or system | test | test system | setting | scale | measurement | result |
| --- | --- | --- | --- | --- | --- | --- | --- |
| N=C(N)NCCC[C@@H]1NC(=O)[C@H](CCCCNC(=O)CCOCCOCCOCCOCCNC(=O)CC[C@H](NC(=O)CCOCCOCCOCCOCCNC(=O)c2ccc(NN)nc2)C(=O)NCCOCCOCCOCCOCCC(=O)NCCCC[C@@H]2NC(=O)[C@@H](Cc3ccccc3)NC(=O)[C@H](CC(=O)O)NC(=O)CNC(=O)[C@H](CCCNC(=N)N)NC2=O)NC(=O)[C@@H](Cc2ccccc2)NC(=O)[C@H](CC(=O)O)NC(=O)CNC1=O [technetium-99m labelled] | – | – | athymic nude mice, female, U-87 MG glioma xenograft, tumour | intravenous, 0.1 MBq, range over 5 and 60 min | – | tissue uptake | 7.24 to 8.72 %ID/g |
